# Measurements of several laboratories.
# Parts stem from different laboratories: compare values within a part only.
# Chain of UniProt Q99640 (whole entry, looked up): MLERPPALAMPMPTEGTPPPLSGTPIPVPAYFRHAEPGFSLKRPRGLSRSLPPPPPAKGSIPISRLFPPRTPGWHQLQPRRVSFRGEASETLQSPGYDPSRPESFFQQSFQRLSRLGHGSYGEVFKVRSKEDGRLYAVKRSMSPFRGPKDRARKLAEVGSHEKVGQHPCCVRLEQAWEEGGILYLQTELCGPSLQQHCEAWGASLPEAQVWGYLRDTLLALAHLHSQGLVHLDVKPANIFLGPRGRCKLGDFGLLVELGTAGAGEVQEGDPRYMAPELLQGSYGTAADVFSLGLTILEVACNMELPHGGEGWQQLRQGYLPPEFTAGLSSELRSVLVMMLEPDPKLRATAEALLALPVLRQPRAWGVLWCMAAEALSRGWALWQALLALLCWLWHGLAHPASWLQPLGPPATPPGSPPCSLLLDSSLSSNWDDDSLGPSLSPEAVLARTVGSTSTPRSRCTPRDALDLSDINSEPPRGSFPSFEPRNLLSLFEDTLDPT

# Block 1
# SMILES: C[C@@H]1CN(c2ccc(-c3cc(C(=O)NCCOCCOCCOCCOCCOCCOCCNC(=O)/C=C/c4[nH]cc(C(=O)N[C@@H](CC(N)=O)c5ccc(F)c(Cl)c5)c4-c4ccc(Cl)cc4F)ccc3F)cc2NC(=O)c2ccc(F)cc2C(F)(F)F)C[C@H](C)N1C
# Effect on: thermal unfolding
# Technique: differential scanning fluorimetry
# Concentration: 5.5 µM
# Reading: higher = more unfolded
# WDR5: WD repeat-containing protein 5 (WDR5, Homo sapiens, UniProt P61964)
# DCAF1: DDB1- and CUL4-associated factor 1 (DCAF1, Homo sapiens, UniProt Q9Y4B6)
# Chain of UniProt Q9Y4B6 (whole entry, looked up): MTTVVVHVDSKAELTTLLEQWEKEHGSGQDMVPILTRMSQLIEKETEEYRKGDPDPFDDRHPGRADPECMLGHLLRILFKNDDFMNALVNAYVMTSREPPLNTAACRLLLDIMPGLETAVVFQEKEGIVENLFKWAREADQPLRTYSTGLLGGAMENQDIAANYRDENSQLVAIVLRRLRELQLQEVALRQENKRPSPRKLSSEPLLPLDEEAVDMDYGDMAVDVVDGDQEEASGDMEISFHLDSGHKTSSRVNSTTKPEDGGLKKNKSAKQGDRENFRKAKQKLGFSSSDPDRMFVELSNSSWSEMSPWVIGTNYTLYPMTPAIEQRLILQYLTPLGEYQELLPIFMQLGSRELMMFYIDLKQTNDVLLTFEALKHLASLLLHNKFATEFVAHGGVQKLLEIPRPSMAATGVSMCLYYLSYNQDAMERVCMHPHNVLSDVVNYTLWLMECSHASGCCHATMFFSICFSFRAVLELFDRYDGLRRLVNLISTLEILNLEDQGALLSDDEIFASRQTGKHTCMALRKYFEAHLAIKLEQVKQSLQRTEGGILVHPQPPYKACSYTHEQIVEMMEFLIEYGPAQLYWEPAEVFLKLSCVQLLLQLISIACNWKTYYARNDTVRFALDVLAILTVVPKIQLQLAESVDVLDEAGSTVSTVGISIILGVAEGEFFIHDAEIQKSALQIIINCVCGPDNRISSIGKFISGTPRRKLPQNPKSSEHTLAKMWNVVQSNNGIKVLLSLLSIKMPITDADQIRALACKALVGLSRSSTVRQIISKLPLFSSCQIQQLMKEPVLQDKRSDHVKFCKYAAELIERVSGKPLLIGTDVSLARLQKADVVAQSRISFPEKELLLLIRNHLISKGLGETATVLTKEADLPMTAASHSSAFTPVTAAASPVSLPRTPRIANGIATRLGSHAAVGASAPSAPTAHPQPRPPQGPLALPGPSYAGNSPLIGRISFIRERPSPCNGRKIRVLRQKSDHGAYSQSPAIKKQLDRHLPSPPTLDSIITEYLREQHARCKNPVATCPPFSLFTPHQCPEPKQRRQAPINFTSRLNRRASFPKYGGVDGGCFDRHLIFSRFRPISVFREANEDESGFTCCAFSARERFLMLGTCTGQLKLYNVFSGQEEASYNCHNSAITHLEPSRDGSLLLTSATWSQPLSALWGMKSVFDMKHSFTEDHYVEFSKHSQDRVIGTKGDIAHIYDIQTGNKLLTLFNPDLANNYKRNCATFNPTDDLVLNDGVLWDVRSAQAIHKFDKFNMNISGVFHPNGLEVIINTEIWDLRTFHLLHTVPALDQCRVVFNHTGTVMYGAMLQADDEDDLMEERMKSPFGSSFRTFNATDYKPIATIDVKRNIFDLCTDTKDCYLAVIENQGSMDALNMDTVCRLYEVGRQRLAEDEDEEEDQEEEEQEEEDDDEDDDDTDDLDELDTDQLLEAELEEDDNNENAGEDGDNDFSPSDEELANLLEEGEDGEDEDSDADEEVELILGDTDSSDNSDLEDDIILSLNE
target,setting,SYPRO Orange fluorescence [a.u.]
WDR5,81.21 °C,65700
WDR5,79.21 °C,63300
WDR5,53.01 °C,16600
DCAF1,93.21 °C,30000
DCAF1,91.41 °C,31300
WDR5,84.41 °C,63000
WDR5,41 °C,14200
WDR5,73.81 °C,43500
WDR5,49.4 °C,16100
WDR5,30.8 °C,13600
DCAF1,70.61 °C,47600

# Block 2
# SMILES: CCN1/C(=C/C=C2\CCCC(/C=C/C3=[N+](CC)c4ccccc4C3(C)C)=C2NCCCCCCCCN2CCC(Nc3nc4ccccc4n3Cc3ccc(F)cc3)CC2)C(C)(C)c2ccccc21
# Cell line: U-87 MG
# Concentration: concentration not given
# Relative to: DMSO
test,log2 fold change
item: TXNRD1 mRNA,1.73
item: TNFSF10 mRNA,-3.63
item: PDRG1 mRNA,1.1
item: NECTIN1 mRNA,-0.989
item: C5orf34 mRNA,-0.9
item: TAMALIN mRNA,-1.78
item: HINFP mRNA,1.26
item: LOX mRNA,1.45
item: TENT5A mRNA,-1.41
item: C1QTNF2 mRNA,-2.79
item: MICAL3 mRNA,-1.05
item: SLFN12 mRNA,-1.72
item: UBC mRNA,1.83
item: ZNF484 mRNA,1.18
item: SPIRE1 mRNA,1.05
item: SLFN5 mRNA,1.01

# Block 3
# Target: Sodium-dependent neutral amino acid transporter B(0)AT1 (SLC6A19, Homo sapiens, UniProt Q695T7)
# Chain of UniProt Q695T7 (whole entry, looked up): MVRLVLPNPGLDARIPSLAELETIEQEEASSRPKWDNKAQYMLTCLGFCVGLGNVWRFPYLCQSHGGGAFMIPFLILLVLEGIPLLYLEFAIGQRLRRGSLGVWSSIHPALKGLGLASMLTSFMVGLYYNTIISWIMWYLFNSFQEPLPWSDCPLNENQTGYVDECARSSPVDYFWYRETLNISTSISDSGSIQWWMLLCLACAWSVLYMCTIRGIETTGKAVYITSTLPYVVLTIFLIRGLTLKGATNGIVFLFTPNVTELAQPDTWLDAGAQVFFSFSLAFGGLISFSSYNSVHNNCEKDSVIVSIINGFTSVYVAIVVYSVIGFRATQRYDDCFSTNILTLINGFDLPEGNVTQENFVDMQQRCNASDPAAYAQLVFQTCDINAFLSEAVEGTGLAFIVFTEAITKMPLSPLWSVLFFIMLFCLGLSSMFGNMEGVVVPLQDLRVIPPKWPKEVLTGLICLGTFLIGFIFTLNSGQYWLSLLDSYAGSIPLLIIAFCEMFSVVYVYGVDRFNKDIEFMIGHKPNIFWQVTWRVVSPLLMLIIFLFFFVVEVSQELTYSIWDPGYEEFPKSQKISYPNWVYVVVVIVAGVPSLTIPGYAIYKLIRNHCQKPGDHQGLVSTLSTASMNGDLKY
# Technique: FLIPR membrane potential
# Cell line: CHO-BC
# Concentration: concentration not given
# Notes: unit not given
# Relative to: fraction of control
Compound,remaining activity
CCNC(=O)COc1cc(C)c(Cl)c(C)c1,0.154
CC(C)NC(=O)COc1ccc(Cl)cc1,0.464
CC(C)NC(=O)CSc1ccc(Cl)cc1,0.225
CC(C)NC(=O)COc1ccc(Br)cc1,0.333
Cc1cc(OCC(=O)NC(C)C)ccc1Br,0.0929
CCCNC(=O)COc1cc(C)c(Cl)c(C)c1,0.225
Cc1cc(OCC(=O)NC(C)C)cc(C)c1Br,0.233
CC(C)NC(=O)COc1ccc2ccccc2c1,0.131
Cc1cc(OCC(=O)NC(C)C)ccc1Cl,0.2
Cc1cc(OCC(=O)NC(C)C)cc(C)c1I,0.169

# Further values, each from its own experiment
SMILES,tested on,test,test system,setting,endpoint,value
Cc1ncc(-c2cc3c(C#N)c(-c4c(C)ccc(O)c4C)cnc3[nH]2)cn1,,,Caco-2,"2 µM, 2 h, pH 7.4",efflux ratio,1.28
Cc1ccc(O)c(C)c1-c1cnc2[nH]c(-c3cnc(N4CCC(CN5CCN(c6cc7c(cc6F)n(C6CCC(=O)NC6=O)c(=O)n7C)CC5)CC4)nc3)cc2c1C#N (centres unmarked),,,CD-1 mouse,"intravenous, dose not given, 6 h",plasma concentration,not detected
"Cc1ccc(O)c(C)c1-c1cnc2[nH]c(-c3cnc(N4CCC5(CC4)CC(N4CCN(c6ccc(N[C@H]7CCC(=O)NC7=O)cc6F)CC4)CO5)nc3)cc2c1C#N (single isomer, unassigned)","PKMYT1 (Homo sapiens, UniProt Q99640)","degrader, Jess immunoblot",HCC1569,24 h,Dmax,87%
Cc1ccc(O)c(C)c1-c1cnc2[nH]c(-c3cnc(N4CC5(CC(CN6CCN(c7ccc(NC8CCC(=O)NC8=O)cc7F)CC6)C5)C4)nc3)cc2c1C#N (centres unmarked),,,"female CD-1 mouse, plasma","oral, 10 mg/kg",half-life,96 min

# A few entries again (block 2):
test,log2 fold change
item: TENT5A mRNA,-1.41
item: SPIRE1 mRNA,1.05
item: UBC mRNA,1.83
item: C1QTNF2 mRNA,-2.79
item: SLFN12 mRNA,-1.72
